Assay results collected from several papers.
Lines come from different studies, so protocols differ. Numbers after ± are the reported error.

SMILES = CCN(CC)CCOc1ccc(-c2nnn(Cc3ccc(OC)cc3)c2N)cc1; cell line = primary Nf2-deficient mouse tumour cells 184; assay = MTT or WST-8; conditions = concentration not given, 3 days; endpoint = cell proliferation; result = decreased
SMILES = COc1ccc2c(c1)C1CC(C)(N2)c2c(C)nc3ccc(OC)cc3c21 (stereo not shown); cell line = Huh-7; how to read = baseline: Huh-7 CC50 over INDO IC50; endpoint = selectivity index; result = > 165
SMILES = CCCc1cc2c(c(OC)c1OC)OCO2; cell line = DU-145; assay = cell growth or viability, MTT; conditions = 72 h; endpoint = GI50; result = > 250 µM
SMILES = CC[C@H](C)[C@H](NC(=O)CNC(=O)[C@H](CC(C)C)NC(=O)CNC(=O)[C@H](CCCCN)NC(=O)[C@H](CCC(=O)O)NC(=O)[C@H](CCCCN)NC(=O)[C@@H](NC(=O)[C@H](Cc1ccccc1)NC(=O)[C@H](CC(=O)O)NC(=O)[C@H](CCCCN)NC(=O)[C@H](C)NC(=O)[C@H](CCCCN)NC(=O)[C@H](CC(N)=O)NC(=O)[C@H](CC(C)C)NC(=O)[C@H](Cc1c[nH]c2ccccc12)NC(=O)[C@H](CC(=O)O)NC(=O)[C@H](CCCCN)NC(=O)[C@@H](NC(=O)CNC(=O)[C@H](C)N)[C@@H](C)O)[C@@H](C)CC)C(=O)N[C@@H](CC(C)C)C(=O)N[C@@H](CO)C(=O)N[C@@H](C)C(=O)N[C@@H](C)C(=O)N[C@@H](C)C(=O)N[C@@H](CC(N)=O)C(=O)N[C@@H](C)C(=O)N[C@@H](C)C(=O)N[C@H](C(=O)N[C@@H](CC(N)=O)C(=O)O)[C@@H](C)CC; cell line = HEK293 cells; assay = intracellular calcium, FLIPR; conditions = 0.1% BSA; endpoint = EC50; result = > 100 µM
SMILES = CC(C)CC(O)(CC(C)C)c1cn(C(=O)N2CCCC2)nn1; cell line = mouse T-cells; assay = N-terminal labeled proteins, N-terminal enrichment proteomics, item: ARHGEF2; conditions = 1 nM, 6 h; how to read = baseline: DMSO; endpoint = SILAC ratio; result = 4.41 ± 0.55
SMILES = CCC[P+](c1ccccc1)(c1ccccc1)c1ccccc1; cell line = T47D; assay = cell growth or viability, MTT; conditions = 72 h; endpoint = GI50; result = 2.39 µM
SMILES = COC[C@@H](NC(C)=O)C(=O)NCc1ccc(-c2cccc(Cl)c2)cc1; cell line = CAD; assay = inhibitor; conditions = concentration not given; endpoint = use-dependent Na+ current; result = decreased
SMILES = Cc1cccc(O)c1C(=O)OCC1(O)C(Nc2ccc3c(c2)Cc2ccccc2-3)C(N)C(NC(=O)N(C)C)(C(C)O)C1(C)O (stereo not shown); cell line = RXF 393; assay = cell growth or viability, SRB; endpoint = GI50; result = 0.61 µM
SMILES = CC/C=C\C/C=C\C/C=C\C/C=C\C/C=C\C/C=C\CCC(=O)Nc1ccn(C2OC(CO)C(O)C2(F)F)c(=O)n1 (stereo not shown); cell line = SN12C; assay = NCI60 screen; endpoint = CC50; result = 33.8 µM
SMILES = CC(C)C[C@H](NC(=O)[C@H](C)NC(=O)[C@H](CCCCN)NC(=O)CCNC(=S)Nc1ccc2c(c1)C(=O)OC21c2ccc(O)cc2Oc2cc(O)ccc21)C(=O)N[C@@H](CCC(=O)O)C(=O)N[C@H](C(=O)N[C@@H](CC(C)C)C(=O)N[C@@H](CCCNC(=N)N)C(=O)N[C@@H](CCCNC(=N)N)C(=O)N[C@H](C(=O)NCC(=O)N[C@@H](CC(=O)O)C(=O)NCC(=O)N[C@H](C(=O)N[C@@]1(C)CCC/C=C\CCC[C@@](C)(C(=O)N[C@H](C(=O)N[C@@H](C)C(=O)N[C@@H](Cc2ccccc2)C(N)=O)[C@@H](C)O)NC(=O)[C@H](Cc2c[nH]cn2)NC(=O)[C@H](CC(N)=O)NC(=O)[C@H](CCCNC(=N)N)NC1=O)C(C)C)C(C)C)[C@@H](C)O; cell line = OPM-2; assay = MTT; conditions = up to 40 µM, 24 h; endpoint = viability; result = no effect
SMILES = C[P+](c1ccccc1)(c1ccccc1)c1ccccc1; cell line = A-375; assay = cell growth or viability, MTT; conditions = 72 h; endpoint = GI50; result = 33.3 µM
SMILES = N=C(N)Nc1ccc(-c2nc3ccc(-c4ccc5nc(-c6ccc(NC(=N)N)cc6)[nH]c5c4)cc3[nH]2)cc1; cell line = FECD patient corneal endothelial cells; assay = RT-qPCR, item: TCF4 retained intron 3; how to read = reduction; endpoint = lowest effective concentration; result = 1 µM
SMILES = CC[C@@]1(O)C(=O)OCc2c1cc1n(c2=O)Cc2cc3cc(OC(=O)CCCC(=O)NCC(=O)N[C@@H](Cc4ccccc4)C(=O)N[C@@H](Cc4ccccc4)C(=O)N[C@@H](Cc4ccc(OP(=O)(O)O)cc4)C(=O)NCC(=O)N[C@@H](CCC(=O)O)C(=O)N[C@@H](CCCNC(=N)N)C(=O)NCC(=O)N[C@@H](CC(=O)O)C(=O)O)ccc3nc2-1; cell line = HepG2 spheroids; assay = confocal microscopy; conditions = 100 µM, 6 h; endpoint = penetration depth; result = 100 µm
SMILES = CC(C)[C@]12O[C@H]1[C@@H]1O[C@]13[C@]1(O[C@H]1C[C@H]1c4c(C(=O)c5ccccc5)oc(OC(=O)c5ccccc5)c4CC[C@@]13C)[C@@H]2O; cell line = MV4-11; assay = cell viability; conditions = 24 h; how to read = baseline: compound over triptolide; endpoint = IC50 ratio; result = 3.1
SMILES = C[C@@H](O)[C@@H]1NC(=O)[C@H](CCCCN)NC(=O)CCC(=O)NCCCC[C@@H](C(=O)NCC(=O)NCC(=O)N[C@@H](Cc2ccc(O)cc2)C(=O)NCC(=O)N[C@@H](CCCNC(=N)N)C(=O)N[C@@H](CCCCN)C(=O)N[C@@H](CCCCN)C(=O)N[C@@H](CCCNC(=N)N)C(=O)N[C@@H](CCCNC(=N)N)C(=O)N[C@@H](CCC(N)=O)C(=O)N[C@@H](CCCNC(=N)N)C(=O)N[C@@H](CCCNC(=N)N)C(=O)N[C@@H](CCCNC(=N)N)C(N)=O)NC(=O)[C@H](CCCCN)NC(=O)[C@H](CCC(=O)O)NC(=O)[C@H](CC(=O)O)NC(=O)CNC1=O; cell line = Huh-7; assay = apoptosis, flow cytometry; conditions = 40 µM, 16 h; endpoint = caspase-3 positive cells; result = 2.33%
SMILES = CC1=CCC23OC2(C)CCC2C(C[N+](C)(C)C)C(=O)OC2C13.[I-] (stereo not shown); cell line = T47D; assay = cell growth or viability, SRB; conditions = 8.3 µM; endpoint = inhibition; result = 76.7%
SMILES = CN1C(=O)C2(Cc3ccc(CC45SSC(CO)(C(=O)N4C)N(C)C5=O)cc3)SSC1(CO)C(=O)N2C (racemic); cell line = MCF7; assay = microarray; conditions = 600 nM, of 43 deferoxamine-induced genes ≥4-fold inhibited ≥2-fold, together with: deferoxamine; endpoint = number of inhibited genes; result = 4
SMILES = CCNc1cc2[o+]c3cc(NCC)c(C)cc3c(-c3ccccc3C(=O)OCCOCC[18F])c2cc1C; cell line = rat cardiomyocytes; conditions = 60 min; how to read = baseline: activity; endpoint = uptake; result = 55 ± 6.8%
SMILES = CC(C)C[C@H](NC(=O)[C@H](C)N)C(=O)N[C@@H](CC(C)C)C(=O)N[C@@H](C)C(=O)N[C@@H](CC(N)=O)C(=O)N[C@@H](Cc1c[nH]cn1)C(=O)N[C@@H](CCC(=O)O)C(=O)N[C@@H](CCC(=O)O)C(=O)N[C@@H](CC(C)C)C(=O)N[C@@H](Cc1ccccc1)C(=O)N[C@@H](CCC(N)=O)C(=O)N[C@H](C(=O)NCC(=O)NCC(=O)NCC(=O)N[C@@H](CO)C(=O)N[C@@H](CSC1CC(=O)N(CCNC(=O)CCCCCN2C(=CC=C3CCCC(C=CC4=[N+](CCCCS(=O)(=O)[O-])c5ccc(S(=O)(=O)O)cc5C4(C)C)=C3Oc3ccc(S(=O)(=O)O)cc3)C(C)(C)c3cc(S(=O)(=O)O)ccc32)C1=O)C(=O)O)[C@@H](C)O (stereo partly shown); cell line = Hep3B; assay = co-localization with anti-GPC3 antibody, confocal microscopy; endpoint = Pearson correlation coefficient; result = 0.71
SMILES = C=C1C(=O)O[C@H]2[C@H]1CCC(C)=C1[C@H](OC(=O)c3cn[nH]c3-c3ccccc3)C[C@@](C)(O)[C@@H]12; cell line = M9-ENL1 leukaemia cells; assay = annexin V/7-AAD flow cytometry; conditions = 24 h, 5% human plasma; endpoint = CC50; result = 9.5 µM
SMILES = CCCCN(CCCC)[C@H]1C=C[C@]2(O[C@H]([C@@H](CC)C(=O)[C@@H](C)[C@@H](O)[C@H](C)[C@@H]3O[C@@H]([C@@H](CC)C(=O)O)CC[C@@H]3C)[C@@H](C)C[C@H]2C)O[C@@]12CC[C@@](C)([C@H]1CC[C@](O)(CC)[C@H](C)O1)O2; cell line = HMLER CD24low/CD44high; assay = cell viability, CellTiter-Blue; conditions = 72 h; how to read = baseline: IC50 HMLER CD24high/CD44low over CD24low/CD44high; endpoint = selectivity ratio; result = 7.6
SMILES = CCCCCCCCCCCCCCCC[P+](c1ccccc1)(c1ccccc1)c1ccccc1; cell line = DU-145; assay = cell growth or viability, MTT; conditions = 72 h; endpoint = GI50; result = 1.11 µM
SMILES = CNC(=O)c1cc(Oc2ccc(NC(=O)c3ccc(-c4cccc(COC(=O)CCC(=O)OC5OC6OC7(C)CCC8C(C)CCC(C5C)C68OO7)c4)cn3)cc2)ccn1 (stereo not shown); cell line = Huh-7; assay = PI staining, flow cytometry; conditions = concentration not given, 24 h; endpoint = S phase cells; result = 39%
SMILES = CC[C@H](C)[C@@H]1NC(=O)[C@H](Cc2c[nH]c3ccccc23)NC(=O)[C@H](CCCCCC(=O)NO)NC(=O)[C@H]2CCCCN2C1=O; cell line = iPSC-derived neural progenitor cells; assay = ELISA; conditions = 1 µM, 18 h; how to read = baseline: vehicle; endpoint = intracellular progranulin level; result = ~2.5 fold increase
SMILES = CCCc1cc(OC)c2c(c1OC)OCO2; cell line = T47D; assay = cell growth or viability, MTT; conditions = 72 h; endpoint = GI50; result = 90.2 µM

For quick reference, copied from above:
SMILES = CC(C)CC(O)(CC(C)C)c1cn(C(=O)N2CCCC2)nn1; cell line = mouse T-cells; assay = N-terminal labeled proteins, N-terminal enrichment proteomics, item: ARHGEF2; conditions = 1 nM, 6 h; how to read = baseline: DMSO; endpoint = SILAC ratio; result = 4.41 ± 0.55
SMILES = COc1ccc2c(c1)C1CC(C)(N2)c2c(C)nc3ccc(OC)cc3c21 (stereo not shown); cell line = Huh-7; how to read = baseline: Huh-7 CC50 over INDO IC50; endpoint = selectivity index; result = > 165
SMILES = CC[C@H](C)[C@@H]1NC(=O)[C@H](Cc2c[nH]c3ccccc23)NC(=O)[C@H](CCCCCC(=O)NO)NC(=O)[C@H]2CCCCN2C1=O; cell line = iPSC-derived neural progenitor cells; assay = ELISA; conditions = 1 µM, 18 h; how to read = baseline: vehicle; endpoint = intracellular progranulin level; result = ~2.5 fold increase
SMILES = C[C@@H](O)[C@@H]1NC(=O)[C@H](CCCCN)NC(=O)CCC(=O)NCCCC[C@@H](C(=O)NCC(=O)NCC(=O)N[C@@H](Cc2ccc(O)cc2)C(=O)NCC(=O)N[C@@H](CCCNC(=N)N)C(=O)N[C@@H](CCCCN)C(=O)N[C@@H](CCCCN)C(=O)N[C@@H](CCCNC(=N)N)C(=O)N[C@@H](CCCNC(=N)N)C(=O)N[C@@H](CCC(N)=O)C(=O)N[C@@H](CCCNC(=N)N)C(=O)N[C@@H](CCCNC(=N)N)C(=O)N[C@@H](CCCNC(=N)N)C(N)=O)NC(=O)[C@H](CCCCN)NC(=O)[C@H](CCC(=O)O)NC(=O)[C@H](CC(=O)O)NC(=O)CNC1=O; cell line = Huh-7; assay = apoptosis, flow cytometry; conditions = 40 µM, 16 h; endpoint = caspase-3 positive cells; result = 2.33%
